Results gathered from unrelated publications.
Numbered parts are unrelated; each lists some results of a single study.

Sample 1
Target: RING finger protein unkempt homolog, zinc fingers 1-6, GST-SBP tag (UNK, Homo sapiens, UniProt Q9C0B0, residues 30-357)
Method: RNA Bind-n-Seq
Molecule type: RNA
Matrix: in vitro
Tested at: not given
Notes: RNA with constant flanks, human-mouse chimeric sites, ends assumed
Relative to: input RNA pool
Direction: higher = stronger binding
Shared flanks, not repeated: GGGAGUUCUACAGUCCGACGAUC … CAACAGAGGAUUGAGCAUCA
Target sequence (chain): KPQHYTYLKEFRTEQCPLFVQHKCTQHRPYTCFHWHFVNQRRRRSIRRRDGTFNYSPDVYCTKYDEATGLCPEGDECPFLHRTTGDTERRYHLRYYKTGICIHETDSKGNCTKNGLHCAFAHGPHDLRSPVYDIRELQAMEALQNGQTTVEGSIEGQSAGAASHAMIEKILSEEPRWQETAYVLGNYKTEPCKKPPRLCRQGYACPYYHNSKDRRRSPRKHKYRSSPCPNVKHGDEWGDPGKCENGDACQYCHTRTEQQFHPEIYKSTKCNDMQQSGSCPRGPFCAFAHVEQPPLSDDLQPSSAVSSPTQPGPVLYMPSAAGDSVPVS
Oligonucleotide	bound/input enrichment
AAAGAACUUGCUGAUGAAGAAGAGGAAGAAGACAAUGAUGAUGUUGAACCCAUUUCUGAAUUUCGAUUUGUGCCCAGUGAUAAGUCAGCAUUGGAGGCGAUGUUCACAGCAAUGUGUGAG	0.382 ratio
UGUGAACUGUCUCUUGAGAUCUAAAAACAAGAUGACUUUUCCUGGCACAUAUUCCAAAGCAAAGACUUUGUUACCUGCUGCUUAUUGUCUAAUUUACAGGGAUAUUUAAUUUUGUCAGGU	0.207 ratio
AGCACAACACCAGCUAAGCUAAGAAAUCCUUGUACAAGUGAACAAAACUGCACCAGCCCAUUUAGCUACAAAAAUGUGCUUAGUCUUACUGACAGAGGAGAAGUAUUCAAUGAACUUGUU	0.82 ratio
AUAGAUGAAAUUGAUGUGGACCAGGAAGGAAUUGCAGAAAUGAUGCUGGAUGAAAAUGCUAUUGCUCAGGUCCCACGCCCUGGCACAUCUUUGAAGCUCCCUGGCACUAACCAAACAGGA	0.316 ratio
CAGUCCCCGUGUCCCAGUGCAGGACGAGAACAUGGACUCGAAGACAUGGACCCUCUAUUGUAGUUCUUGAUUCUCGAAAUGUGCUAUUAUUGUUUGUCUUUUUUUUUUUUUUUUUAAAGA	1.39 ratio
CACAGAGGCACCACCCCCCCCUCCUCCUUUCCACACCUGCAAACUCUUUUACUUGGGCUGAAUAUUUAGUGUAAUUACAUCUCAGCUUUGAGGGCUCCCUGUGGCAAUUCCCGGAUUAAA	2.36 ratio
CUGUGUGUGCUGAAUAAAUGGCUUGUAAGAACUGUCCUCCAAGCUGUAACCCAUGCUGUUAUUAUAGUUGCUGCAAAAUGUUCUUCCUGAUAUUGAUGUUUGUUUACAACUGAAGGUCUC	0.247 ratio
GUUGCCAGCUUCCGGUUGGCCUCCAUCCGGUUCUCUCCUGAGCUACGUGUCUCUACGCUCUCAAUCCGCCAUCCAACAAACAUGGAUGAUCAGGUAAAGUUUGUGGAGCCCAGCCGGCAG	0.0961 ratio
UUGCUACUGACUCCCUGGGUCAAGUUCCUGUGGGAAUCAUACAGGCAGUGUUUGGACCUUCUUAGAAACAAUUCUAGAGUAGAGCGCCUUUACCAUGAUAUCGCCCAACAAGCUUUCAAA	0.252 ratio
AGUUCCAAACCACCAUCAGAAAUGAAGAUGAGAUUACCCAAGACGAGCAAAACAGCUGCGCUACAGAAAAGUAAACUUAACCUUGCAGAGUUCCUUAAUGAAGAUACAAGUUAAGAGAGC	0.168 ratio
GAGCCCAGCCGGCAGUUUGUAAAGGACUCAAUUCGGCUGGUUAAAAGAUGCACUAAACCCGACAGAAAAGAAUUCCAGAAGAUUGCCAUGGCUACAGCAAUAGGAUUUGCUAUCAUGGGA	0.119 ratio

Sample 2
Target: Ras GTPase-activating protein-binding protein 1, full length (G3BP1, Homo sapiens, UniProt Q13283)
Chain of UniProt Q13283 (whole entry, looked up): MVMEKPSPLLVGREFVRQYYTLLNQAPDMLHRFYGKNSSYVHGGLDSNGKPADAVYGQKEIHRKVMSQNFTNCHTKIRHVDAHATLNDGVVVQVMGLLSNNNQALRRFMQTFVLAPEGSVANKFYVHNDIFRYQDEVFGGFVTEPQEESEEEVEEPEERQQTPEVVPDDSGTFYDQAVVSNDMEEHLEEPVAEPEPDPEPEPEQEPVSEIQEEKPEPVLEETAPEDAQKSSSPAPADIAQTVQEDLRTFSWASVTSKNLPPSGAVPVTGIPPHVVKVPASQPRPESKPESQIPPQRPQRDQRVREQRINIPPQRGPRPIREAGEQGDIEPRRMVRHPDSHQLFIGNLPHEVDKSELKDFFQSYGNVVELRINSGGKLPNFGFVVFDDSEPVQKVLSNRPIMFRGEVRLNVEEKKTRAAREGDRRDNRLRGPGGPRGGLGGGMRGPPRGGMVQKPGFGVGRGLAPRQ
Method: RNA Bind-n-Seq
Molecule type: RNA
Matrix: in vitro
Tested at: 200 nM
Notes: whole 134-nt RNA, ends assumed
Added: 150 mM LiCl
Relative to: input library
Direction: higher = stronger binding
Each molecule: 7-deaza-guanosine replaces G
Shared flanks, not repeated: GGGAGUUCUACAGUCCGACGAUC … UGGAAUUCUCGGGUGUCAAGG
Oligonucleotide	log2 enrichment
CUGUGCUACACAUCGUAUGUACCGAAUCGGGGAAAAAAAGGGGAAAAAAAGGGGAAAGGGGAAAGUAUUAUGUUACGCCGUUCGGAUCUG	0.427
UGGCAGGUGGAUUUUGUUUAUUUUUUUAGCUCAUUUCCAGGGGUGGGAAUUUUUUUUUAAUAUGUGUCAUGAAUAAAGUUGUUUUUGAAA	0.209
AGUCCUGUGCUACACAUCGUAUGUACCGAAUCGGUUUUUGGGGUUUUUGGUUUUUGGGAAAGUAUUAUGUUACGCCGUUCGGAUCUGCAC	-0.226
CUCAAGUCCUGUGCUACACAUCGUAUGUACCGAAUCGGGGCGGGCGGGCGGGGAAAGUAUUAUGUUACGCCGUUCGGAUCUGCACUUCCA	0.0567
AAGUCCUGUGCUACACAUCGUAUGUACCGAAUCGGGAAAGGGGAAAGGGGAAAGGGGAAAGUAUUAUGUUACGCCGUUCGGAUCUGCACU	1.02
AAGUCCUGUGCUACACAUCGUAUGUACCGAAUCGGGGUUUUGGUUUUGGUUUUGGGGAAAGUAUUAUGUUACGCCGUUCGGAUCUGCACU	-0.124
ACCAUGCAGGUGGGCAUCUUUGGGAAGUGGGGCAAGGGGGGGAUAGGGAGGGGGGUAACACUUUGGGAACAGGUGGUCCAAAGUCGUUUC	0.17
UGGGAGGUGGAUUUUGUUUAUUUUUUUAGCUCAUUUCCAGGGGUGGGAAUUUUUUUUUAAUAUGUGUCAUGAAUAAAGUUGUUUUUGAAU	0.0207
UCCUGUGCUACACAUCGUAUGUACCGAAUCGGGAAAAAAGGGGAAAAAAGGAAAAAAGGAAAGUAUUAUGUUACGCCGUUCGGAUCUGCA	-0.0871
CACAGACAACACGCACCCACACAGACACAGAGGGAAGGGGUUGGGAUGGGGACUGGGUGCACAGCAGGGCGGGGUAGGACCCCAGCCCCU	0.298
GCAGGAAGUAAAAACAAAUGGAAAUGCUUCGGAUAGUGACAGGGGUGGGGGUUGCUAAGGAAAGGGUGGGAUGGGAGUGGGUAAAGAGUU	-0.0231

Sample 3
Target: Histone acetyltransferase KAT6A, winged helix 2, GST fusion (KAT6A, Homo sapiens, UniProt Q92794, residues 85-181)
Method: protein binding microarray
Molecule type: double-stranded DNA, one strand shown
Matrix: in vitro
Tested at: not given
Notes: 8-mer, flanks averaged, mean of 2 arrays, mostly near background
Relative to: not given
Direction: higher = stronger binding
Residues (chain): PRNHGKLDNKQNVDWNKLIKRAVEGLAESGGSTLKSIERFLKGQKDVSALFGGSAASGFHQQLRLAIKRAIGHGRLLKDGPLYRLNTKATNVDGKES
Oligonucleotide	E-score
CACGCGAC	0.0101
AGGGTTAT	-0.199
GTATAACA	-0.0336
CTATGGGC	-0.0415
CTTATCGA	0.00718
CCTTGAAC	-0.0811
AGTGATCC	-0.00029
CGATGTAA	-0.188
CAAGGGGC	0.192
ACCTTTTA	-0.18
ATGAACTC	-0.0312
CCCCTCGC	0.152
AAGCGGAT	0.0239
CATCTCTC	-0.111
CGCACCCG	0.259
CTCAGTTA	0.126
ATTTGATA	-0.0414
AGTCGCAG	0.0681
AGTTTCGG	0.135
ATTATTTA	0.214
TGCTCTAA	0.0935
CCTTCTAA	-0.0695
ACACAGGG	0.0232

Sample 4
Target: RNA binding protein fox-1 homolog 2, RRM domain, GST-SBP tag (RBFOX2, Homo sapiens, UniProt O43251-10, residues 100-194)
Method: RNA Bind-n-Seq
Molecule type: RNA
Matrix: in vitro
Tested at: 365 nM
Notes: natural RNA segment, single round, ends assumed
Relative to: no-protein control
Direction: higher = stronger binding
Shared flanks, not repeated: GGGAGUUCUACAGUCCGACGAUC … UGGAAUUCUCGGGUGCCAA
Construct (chain): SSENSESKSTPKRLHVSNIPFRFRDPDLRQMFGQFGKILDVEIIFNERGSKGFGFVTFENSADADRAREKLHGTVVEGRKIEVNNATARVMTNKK
Oligonucleotide	RBNS enrichment (R)
CACUGCGAGAUGUGCAGCCUCCCCCGGACCUAGGGCUCUGGGCCUCUGCUGCAUGGGACUGGGCCAGCCCAGCCCUCUGAAGUCUGGAGCGCCACAUGUUCCCUAUAAGG	0.345
AGUUUUGGGUUUCUCCCCUGUCCCAAGGCUCAGAGUCUUCAUCUCCUACGUGACUGACUACAGUUGGUUUGGAGGCCCUGGACCUCUGUGGCGUCUUUGAAGCCUGGCCU	0.398
UUUAGUGGCUGUCUGAAACCCCAUGUGUGAAGGGCCCCUUGCCCAACAGGGUUGAGGUGGGGAGCAAGAGCAAUCUGUUUUUAUUUGCUCGUAUGUCAGGGACAGGUGUU	3.99
GUGGCUGUACUUCAGAUCAUCAAAGCAAGAGAAAGAAUGUGCUGAGUGUUUUCUUCCCUGUGCCUUAAGGGCCCUCAUCCCAGCAGCCCAUAUAGCCAGCAAAUGGAGGA	0.814
GGUCUUGGUAGCCCUAUUAUAUCAUUGCAGACACAGUGUUGUGCAUGUGUGUAUUGUAUAUGUGCACCAGCAUCAAACAUUGUGUAUCUGGAAGGAAAGCAGCAUGUUCC	13.3
AAAGAUGCACUUUAGGAAACGAAAUAUUUCCUAAAUAACCAGGCUUCCACAUUGUACAGAAUGAGCAGUCAUGUAAUGAAUGGCUCUACUCAGAUUGACCAUAUGGGUUU	0.301
CUGCCACGUGUCCCGUGUGCUCCAGUGCCCGUGCCCGUCACCGCCCCUCCACGCCCUCCGUGAGGUUGUCCAGGCUGUGUUCUCUCGCAUGCUUCUCUUCUAUAUAACCC	8.9
GUGGGGUGGGAGAACCUCCUGGGCCGCCAGCCAGAGCCGGUCUUUAGGCUGUGUUGUUCGCCCAGGUUUCUGCAUCUUGCACUUUGACAUUCCCAAGAGGGAAGGGACUA	0.669
CUUUCUCCUGUGGUCUCUUAAUCCAGUAAUUGUAUUACUGCCAUUAAAGGAUGCAGUUAUUUUAAAAGCUUGUGGGUCUGGUCUCUCCAGGCUGCCCCAGACCAUCCCUU	0.215
GGACUCUGAACCAUGAUUGGAAGCAGAAAUAUAGUACGAUAGUGCAAUAGCUCAGAACCCGCCUAAACUGAAGGCCUUUUGGCUGCAUGGCUACAGCUUUCAGCCACUUA	0.423
AUGGGACCAGGGCAGUCACCAGUGCCGAAGAGCGGUCCCCUUCGUGGAUAUCUGCUUCCAUGACAGAACCUCUUGAGCACGCAGAGGGAGUGGCCACACCGCCUGUUGGA	7.55
CCCCUUUUCAUGUCCUGACCCAUGUCCUGCCAGUGUUCUUUCCAUGCUUUAAGUUGACUCUUUCUUCCUCCCUUCUCCCUCCAGACCUGUUCCUACCCUUGCUGAACAGC	1.31

Sample 5
Target: Protein C-ets-1 (ETS1, Homo sapiens, UniProt P14921, residues 1-441, full length assumed)
Chain of UniProt P14921 (whole entry, looked up): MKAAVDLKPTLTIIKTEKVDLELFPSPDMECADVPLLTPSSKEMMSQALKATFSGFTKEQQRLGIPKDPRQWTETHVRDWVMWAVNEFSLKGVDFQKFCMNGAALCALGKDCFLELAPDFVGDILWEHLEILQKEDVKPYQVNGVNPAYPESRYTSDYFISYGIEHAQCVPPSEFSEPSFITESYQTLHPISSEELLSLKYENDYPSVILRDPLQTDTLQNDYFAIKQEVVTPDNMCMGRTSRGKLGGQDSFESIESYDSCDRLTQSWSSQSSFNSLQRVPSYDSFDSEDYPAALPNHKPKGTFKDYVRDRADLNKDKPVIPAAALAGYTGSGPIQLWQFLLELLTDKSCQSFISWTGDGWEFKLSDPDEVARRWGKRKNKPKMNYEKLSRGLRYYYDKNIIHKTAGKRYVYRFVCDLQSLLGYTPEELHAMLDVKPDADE
Method: protein-binding microarray
Molecule type: double-stranded DNA, one strand shown
Matrix: in vitro
Tested at: not given
Notes: k-mer, scored over probes, only values ≥0.25
Direction: higher = stronger binding
Oligonucleotide	E-score
CAACGTCC	0.283
CTCAGGAA	0.298
ACATATCC	0.301
ATTCCGGC	0.375
CATCCCGA	0.318
GCGCATCC	0.386
GCGGATAC	0.432
CCACTCAG	0.259
CGGCGGAA	0.439
CCCGGAAC	0.436
GCAGGATA	0.397
CACTTCCG	0.491
CGGATGCC	0.465
ACCGGACA	0.452
CGGAACAA	0.356
CACTTCCA	0.416
AAACGGAA	0.423

Repeated from above (sample 3):
Oligonucleotide	E-score
CCTTGAAC	-0.0811
ATTTGATA	-0.0414
CACGCGAC	0.0101
ACACAGGG	0.0232
CTTATCGA	0.00718
GTATAACA	-0.0336
AGTGATCC	-0.00029
CGCACCCG	0.259
ATTATTTA	0.214
AGGGTTAT	-0.199
CGATGTAA	-0.188
CCCCTCGC	0.152
